# Experimental data pooled from the literature.
# Compare with care: the assays were run in different laboratories. ± marks the error that the study gave.
Compound,organism,test,test system,conditions,scale,endpoint,value
COc1ccc(Nc2c(C#N)cnc3ccc(Cl)cc23)cc1,Trypanosoma cruzi,"parasite viability, resazurin","Y, trypomastigotes","24 h, heme-free medium",,IC50,> 100 µM
COc1cc(/C=C/c2cc(/C=C/c3ccc(O)c(OC)c3)n(-c3ccc([N+](=O)[O-])cc3[N+](=O)[O-])n2)ccc1O,Spodoptera frugiperda,"cell growth or viability, MTT",Sf9,"100 µM, 72 h",,inhibition,91.7%
CC[C@@H](C)[C@@H](NC(=O)[C@@H](C)N)C(=O)N[C@H](CCCCN)C(=O)N[C@@H](C(=O)N[C@H](CCCNC(=N)N)C(=O)N[C@H](CCCCN)C(=O)N[C@H](CC(C)C)C(=O)N[C@H](Cc1ccccc1)C(=O)N[C@H](CCCCN)C(=O)N[C@H](CCCCN)C(=O)N[C@H](CC(C)C)C(=O)N[C@H](CC(C)C)C(=O)N[C@H](CCCNC(=N)N)C(N)=O)[C@H](C)CC,Escherichia coli,"broth microdilution checkerboard, item: ampicillin","ATCC 25922, LB medium",concentration not given,,MIC of antibiotic,3.12 µg/mL
CN(C)c1cc(CNC(=O)C(C)(C)C)c(O)c2c1C[C@H]1C[C@H]3[C@H](N(C)C)C(O)=C(C(N)=O)C(=O)[C@@]3(O)C(O)=C1C2=O,Streptococcus pneumoniae,,"ATCC 700905, Tet M ribosome protection",,,MIC,2 µg/mL
CC1(C)CC[C@]23CC[C@]4(C)[C@H](CC[C@@H]5[C@@]6(C)CCCNC(C)(C)[C@@H]6CC[C@]54C)[C@H]2[C@H]1OC3,Human cytomegalovirus,cytopathic effect,"HFF, AD169",concentration not given,,antiviral activity,inactive
CN[C@H](CC(C)C)C(=O)N[C@H]1C(=O)N[C@@H](CC(N)=O)C(=O)N[C@H]2C(=O)N[C@H]3C(=O)N[C@H](C(=O)N[C@H](C(=O)O)c4cc(O)cc(O)c4-c4cc3ccc4O)[C@H](O)c3ccc(c(Cl)c3)Oc3cc2cc(c3O[C@@H]2O[C@H](CO)[C@@H](O)[C@H](O)[C@H]2O[C@H]2C[C@](C)(NCc3ccc(C(=O)OCCCCCCN(Cc4ccccn4)Cc4ccccn4)cc3)[C@H](O)[C@H](C)O2)Oc2ccc(cc2Cl)[C@H]1O,Bacillus subtilis,"protein synthesis, item: NfrA",168,"concentration not given, 10 min, at peak effective concentration",relative to: untreated,regulation factor,2.7 ± 0.2
C=C(C)[C@@H]1CC[C@]2(C(N)=O)CC[C@]3(C)[C@H](CC[C@@H]4[C@@]5(C)CCCNC(C)(C)[C@@H]5CC[C@]43C)[C@@H]12,Human cytomegalovirus,,"HFF, AD169",,relative to: CC50 over EC50,selectivity index,< 3
Nc1ncnc2c1c(-c1ccccc1)cn2[C@H]1C[C@H](O)[C@@H](CO)O1,Trichomonas vaginalis,resorufin,"G3, metronidazole-sensitive","24 h + 2 h, 2% O2",,EC50,1.56 ± 0.27 µM
CCCc1ccc2c(c1O)C(c1ccc(OC)c(OC)c1OC)OC2=O (stereo not shown),Naegleria fowleri,"parasite growth, resazurin",ATCC30808,48 h,,IC50,59 µM
Cc1ccc2nc(-c3ccccc3)c(CN3CCCC3)n2c1,Trypanosoma cruzi,,"3T3 host cells, Tulahuen beta-galactosidase",6 days,,EC50,> 20 µM
C[C@@H](c1ccn(Cc2cccc(C(F)(F)F)c2)n1)[C@](O)(Cn1cnnn1)c1ccc(F)cc1F,Candida tropicalis,"growth, broth microdilution",2718,"24 h, 30 °C, ≥50% inhibition",,MIC,< 0.008 µg/mL
CN(C)c1cc(CN)c(O)c2c1C[C@H]1C[C@H]3[C@H](N(C)C)C(O)=C(C(N)=O)C(=O)[C@@]3(O)C(O)=C1C2=O,Streptococcus pneumoniae,"microbial growth, broth dilution",,,,MIC,2 µg/mL
CC[C@H](C)[C@H](NC(=O)[C@H](CCCCN)NC(=O)[C@H](CC(N)=O)NC(=O)[C@H](Cc1c[nH]c2ccccc12)NC(=O)[C@H](Cc1ccccc1)NC(=O)[C@H](CCCCN)NC(=O)[C@H](CCCNC(=N)N)NC(=O)[C@H](CC(C)C)NC(=O)[C@H](Cc1c[nH]c2ccccc12)NC(=O)[C@H](CCCCN)NC(=O)[C@H](CCCNC(=N)N)NC(=O)[C@H](CC(C)C)NC(=O)CNC(C)=O)C(=O)N[C@@H](CCCCN)C(=O)N[C@@H](CCCNC(=N)N)C(N)=O,Gram-negative bacteria,,,,,geometric mean MIC,7.43 µM
Cc1ccc2nc(-c3ccc(F)c(F)c3)cn2c1,Trypanosoma cruzi,,"3T3 host cells, Tulahuen beta-galactosidase",6 days,,EC50,> 5 µM
CN(C)c1cc(CN2CCCCC2)c(O)c2c1C[C@H]1C[C@H]3[C@H](N(C)C)C(O)=C(C(N)=O)C(=O)[C@@]3(O)C(O)=C1C2=O,Streptococcus pneumoniae,"microbial growth, broth dilution",,,,MIC,< 0.06 µg/mL
COc1ccc(-n2nc3c(=O)n(Cc4cccc(NC(C)=O)c4)nc(C)c3c2C)cc1,Zika virus,,"Vero, MR766",,relative to: CC50 over EC50,selectivity index,2.1

# Repeated from above:
Compound,organism,test,test system,conditions,scale,endpoint,value
CCCc1ccc2c(c1O)C(c1ccc(OC)c(OC)c1OC)OC2=O (stereo not shown),Naegleria fowleri,"parasite growth, resazurin",ATCC30808,48 h,,IC50,59 µM
